Assay results pooled from the literature.
Numbered parts are unrelated; each lists some results of a single study.

Set 1
Target: Interferon regulatory factor 5, full length, phosphomimetic (IRF5, Homo sapiens, UniProt Q13568-2, residues 1-514, K96S/S451D/S453D/S456D/S462D)
Method: protein-binding microarray
Form: double-stranded DNA, one strand shown
Matrix: in vitro
Tested at: 250 nM
Notes: 60-bp whole probe
Added: salmon DNA 0.4 mg/ml
Reference: random background probes
Reading: higher = stronger binding
Constant ends, left off below: GCCTAGCAC … GTCTTGATTCGCTTGACGCTGCTG
The log fluorescence of `GACGTTCTCAGTATCGAGACGTGCTAG` is reported as 1.82 z-score.
For `TCAGGTTCCGGTTTCGGTTAGTGCTAG`, the log fluorescence was 9.57 z-score.
For `GACGGACTGGGGACTGGGGAAGTGCTA`, the log fluorescence was -0.717 z-score.
`CACGAACTGGGGTATCGAGACGTGCTA` has a log fluorescence of 0.0403 z-score.
`GACGGCATCGACTATCGGGACGTGCTA` has a log fluorescence of 1.02 z-score.
The log fluorescence of `TCAGTTTTCACTTTTCCACTGTGCTAG` is reported as 3.62 z-score.
`TTAGATATCGGTTTCGATTAGTGCTAG` has a log fluorescence of 10.5 z-score.

Set 2
Target: Fragile X messenger ribonucleoprotein 1, C-terminal low-complexity region (Fmr1, Mus musculus, UniProt P35922)
Method: RNA Bind-n-Seq
Form: RNA
Matrix: in vitro
Tested at: 200 nM
Notes: whole 134-nt RNA, ends assumed
Added: 150 mM LiCl
Reference: input library
Reading: higher = stronger binding
Library: 7-deaza-guanosine replaces G
`GGGAGUUCUACAGUCCGACGAUCCCUGUGCUACACAUCGUAUGUACCGAAUCGGGGUUUUUUUGGGGAAAAAAAGGGGAGGGGAAAGUAUUAUGUUACGCCGUUCGGAUCUGCUGGAAUUCUCGGGUGUCAAGG` gave a log2 enrichment of -1.63.
`GGGAGUUCUACAGUCCGACGAUCCAUCCUUUGGGCCCCUCAAGGCCUUCAACCUGGUCAAGGACAGUGCCACGGGGCUCUCCAAGGGCUACGCCUUCUGUGAGUACGUGGACAUGGAAUUCUCGGGUGUCAAGG` has a log2 enrichment of -0.518.
The log2 enrichment of `GGGAGUUCUACAGUCCGACGAUCACCAUGCAGGUGGGCAUCUUUGGGACGUGGGGCAAGGGGGGGAUAGGGAGGGGGGUAACACUUUGGGAACAGGUGGUCCCAGGUCGUUUCUGGAAUUCUCGGGUGUCAAGG` is reported as 1.31.
The log2 enrichment of `GGGAGUUCUACAGUCCGACGAUCACCAUGCAGGUGGGCAUCUUUGGGAAGUGGGGCAAGGGGGGGAUAGGGAGGGGGGUAACACUAAAGGAACAGGUGGUCCCAGGUCGUUUCUGGAAUUCUCGGGUGUCAAGG` is reported as 1.46.

Set 3
Target: Sal-like protein 4, full length isoform A (SALL4, Homo sapiens, UniProt Q9UJQ4, residues 1-1053)
Sequence of UniProt Q9UJQ4 (whole entry, looked up): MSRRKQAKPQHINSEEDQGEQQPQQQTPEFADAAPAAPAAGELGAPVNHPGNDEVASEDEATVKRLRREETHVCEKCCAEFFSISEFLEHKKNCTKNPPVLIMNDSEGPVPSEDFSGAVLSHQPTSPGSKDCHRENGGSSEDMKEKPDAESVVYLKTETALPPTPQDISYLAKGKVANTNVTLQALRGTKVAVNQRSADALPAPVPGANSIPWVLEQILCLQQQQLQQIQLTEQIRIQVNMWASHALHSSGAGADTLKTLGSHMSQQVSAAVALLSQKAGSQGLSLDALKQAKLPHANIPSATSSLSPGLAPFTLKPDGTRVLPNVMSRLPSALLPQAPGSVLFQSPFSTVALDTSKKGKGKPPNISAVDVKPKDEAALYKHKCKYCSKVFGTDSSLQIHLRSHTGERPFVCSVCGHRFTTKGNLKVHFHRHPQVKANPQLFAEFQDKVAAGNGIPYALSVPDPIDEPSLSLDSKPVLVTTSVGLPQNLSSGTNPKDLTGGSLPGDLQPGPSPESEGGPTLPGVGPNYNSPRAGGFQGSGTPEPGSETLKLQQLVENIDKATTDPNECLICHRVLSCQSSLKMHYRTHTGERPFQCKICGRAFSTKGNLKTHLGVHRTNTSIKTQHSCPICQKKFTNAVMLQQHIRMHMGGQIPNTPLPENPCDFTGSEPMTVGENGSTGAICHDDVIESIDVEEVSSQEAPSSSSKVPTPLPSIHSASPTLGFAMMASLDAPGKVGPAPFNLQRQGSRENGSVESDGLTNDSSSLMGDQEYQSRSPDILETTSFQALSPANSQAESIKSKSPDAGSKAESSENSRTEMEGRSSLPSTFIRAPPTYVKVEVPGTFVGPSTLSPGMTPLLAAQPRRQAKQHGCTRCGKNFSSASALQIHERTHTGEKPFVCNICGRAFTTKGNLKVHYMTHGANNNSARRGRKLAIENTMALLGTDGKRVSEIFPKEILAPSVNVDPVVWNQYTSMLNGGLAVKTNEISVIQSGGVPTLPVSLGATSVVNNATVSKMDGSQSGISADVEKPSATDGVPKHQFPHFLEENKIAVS
Method: universal PBM
Form: double-stranded DNA, one strand shown
Matrix: in vitro
Tested at: 600 nM
Notes: 8-mer, flanks averaged, mean of replicates
Reading: higher = stronger binding
With `AGATTATA` the E-score was 0.261.
`CTTGACAC` gave an E-score of -0.0952.
For `ATCAACTA`, the E-score was 0.26.
The E-score of `ATCGGTCG` is reported as -0.117.
For `CAGTCTGA`, the E-score was -0.0887.

Single results of other studies
`PhoQ, residues 284 288 289 292 302 303 SIHLQL` gave a fold induction of 8.53 (PhoP, residues 12 14 15 18 19 TTLRV (Escherichia coli, UniProt P23836); Sort-seq, refers to: YFP reporter; E. coli; PhoQ-PhoP variant library, added: 10 µM Mg2+; reference: high Mg2+ state, higher = stronger signaling).

Excerpt of the above (set 3):
`CTTGACAC` gave an E-score of -0.0952.
